Experimental data of several laboratories.
Numbered parts are unrelated; each lists some results of a single study.
Sequence of UniProt P42336 (whole entry, unmodified, looked up): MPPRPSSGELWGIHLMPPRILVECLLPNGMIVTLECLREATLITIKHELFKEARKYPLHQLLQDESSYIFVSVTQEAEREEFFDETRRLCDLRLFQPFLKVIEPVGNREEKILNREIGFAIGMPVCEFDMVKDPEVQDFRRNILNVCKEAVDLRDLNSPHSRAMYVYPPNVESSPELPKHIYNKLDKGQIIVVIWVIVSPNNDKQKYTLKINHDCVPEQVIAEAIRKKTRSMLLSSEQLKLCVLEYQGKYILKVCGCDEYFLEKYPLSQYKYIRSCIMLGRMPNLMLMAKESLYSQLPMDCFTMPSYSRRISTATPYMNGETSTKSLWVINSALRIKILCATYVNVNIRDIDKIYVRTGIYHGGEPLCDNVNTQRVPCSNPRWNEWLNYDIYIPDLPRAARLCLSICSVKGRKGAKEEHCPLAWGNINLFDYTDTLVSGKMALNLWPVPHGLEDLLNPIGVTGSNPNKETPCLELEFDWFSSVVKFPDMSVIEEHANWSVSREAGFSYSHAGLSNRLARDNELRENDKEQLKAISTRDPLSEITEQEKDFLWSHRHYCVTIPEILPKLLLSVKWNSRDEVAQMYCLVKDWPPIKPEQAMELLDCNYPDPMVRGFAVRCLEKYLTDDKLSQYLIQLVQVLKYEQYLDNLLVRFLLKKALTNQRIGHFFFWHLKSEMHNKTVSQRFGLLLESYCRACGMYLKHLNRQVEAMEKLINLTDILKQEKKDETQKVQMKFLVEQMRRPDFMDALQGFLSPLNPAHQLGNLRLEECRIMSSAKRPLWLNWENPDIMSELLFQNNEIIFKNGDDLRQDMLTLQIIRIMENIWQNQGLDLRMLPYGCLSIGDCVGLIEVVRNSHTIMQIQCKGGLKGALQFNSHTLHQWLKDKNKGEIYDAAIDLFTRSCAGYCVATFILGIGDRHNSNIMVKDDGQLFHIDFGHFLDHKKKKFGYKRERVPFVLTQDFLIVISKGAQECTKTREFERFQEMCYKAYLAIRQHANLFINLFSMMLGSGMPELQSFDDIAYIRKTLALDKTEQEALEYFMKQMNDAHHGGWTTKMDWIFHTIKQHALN
Sequence of UniProt Q96SB4 (whole entry, looked up): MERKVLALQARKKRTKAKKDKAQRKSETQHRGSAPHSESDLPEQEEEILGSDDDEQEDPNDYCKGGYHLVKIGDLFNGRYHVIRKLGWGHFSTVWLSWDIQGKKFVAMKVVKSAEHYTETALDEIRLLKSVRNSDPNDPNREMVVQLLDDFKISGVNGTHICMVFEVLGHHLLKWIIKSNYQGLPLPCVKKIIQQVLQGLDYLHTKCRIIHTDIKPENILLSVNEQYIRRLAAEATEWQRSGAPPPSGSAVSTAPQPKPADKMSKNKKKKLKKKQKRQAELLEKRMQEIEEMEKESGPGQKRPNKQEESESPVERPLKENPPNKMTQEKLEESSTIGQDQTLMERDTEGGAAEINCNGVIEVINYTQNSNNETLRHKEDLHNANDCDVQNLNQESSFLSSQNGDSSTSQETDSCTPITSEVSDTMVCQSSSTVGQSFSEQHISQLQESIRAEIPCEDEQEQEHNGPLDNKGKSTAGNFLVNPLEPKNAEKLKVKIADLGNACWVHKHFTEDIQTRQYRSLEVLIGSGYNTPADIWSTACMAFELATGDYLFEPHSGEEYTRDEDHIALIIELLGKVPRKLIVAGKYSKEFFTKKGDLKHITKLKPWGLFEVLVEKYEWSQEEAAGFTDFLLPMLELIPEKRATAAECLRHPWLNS
Sequence of UniProt P15056 (whole entry, unmodified, looked up): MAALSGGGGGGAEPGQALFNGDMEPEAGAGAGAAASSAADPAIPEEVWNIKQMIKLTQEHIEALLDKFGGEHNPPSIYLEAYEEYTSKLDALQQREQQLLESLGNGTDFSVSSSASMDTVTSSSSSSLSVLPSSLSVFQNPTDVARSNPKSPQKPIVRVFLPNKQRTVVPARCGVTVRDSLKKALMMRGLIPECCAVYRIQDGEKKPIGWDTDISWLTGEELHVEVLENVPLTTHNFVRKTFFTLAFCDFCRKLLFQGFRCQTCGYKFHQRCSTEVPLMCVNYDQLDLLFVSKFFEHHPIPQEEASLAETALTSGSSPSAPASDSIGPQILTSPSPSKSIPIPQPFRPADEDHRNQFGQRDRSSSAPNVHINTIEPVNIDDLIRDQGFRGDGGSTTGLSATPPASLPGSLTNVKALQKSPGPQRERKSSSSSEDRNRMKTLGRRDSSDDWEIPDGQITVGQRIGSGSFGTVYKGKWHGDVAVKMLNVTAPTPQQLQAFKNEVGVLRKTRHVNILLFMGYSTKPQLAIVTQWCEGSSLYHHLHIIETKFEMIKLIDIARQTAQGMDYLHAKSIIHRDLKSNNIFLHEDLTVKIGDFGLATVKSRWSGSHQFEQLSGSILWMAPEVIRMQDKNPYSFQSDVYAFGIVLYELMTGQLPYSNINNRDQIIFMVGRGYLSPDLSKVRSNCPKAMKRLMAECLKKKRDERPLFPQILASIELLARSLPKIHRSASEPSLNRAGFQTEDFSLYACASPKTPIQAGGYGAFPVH
Sequence of UniProt Q04759 (whole entry, looked up): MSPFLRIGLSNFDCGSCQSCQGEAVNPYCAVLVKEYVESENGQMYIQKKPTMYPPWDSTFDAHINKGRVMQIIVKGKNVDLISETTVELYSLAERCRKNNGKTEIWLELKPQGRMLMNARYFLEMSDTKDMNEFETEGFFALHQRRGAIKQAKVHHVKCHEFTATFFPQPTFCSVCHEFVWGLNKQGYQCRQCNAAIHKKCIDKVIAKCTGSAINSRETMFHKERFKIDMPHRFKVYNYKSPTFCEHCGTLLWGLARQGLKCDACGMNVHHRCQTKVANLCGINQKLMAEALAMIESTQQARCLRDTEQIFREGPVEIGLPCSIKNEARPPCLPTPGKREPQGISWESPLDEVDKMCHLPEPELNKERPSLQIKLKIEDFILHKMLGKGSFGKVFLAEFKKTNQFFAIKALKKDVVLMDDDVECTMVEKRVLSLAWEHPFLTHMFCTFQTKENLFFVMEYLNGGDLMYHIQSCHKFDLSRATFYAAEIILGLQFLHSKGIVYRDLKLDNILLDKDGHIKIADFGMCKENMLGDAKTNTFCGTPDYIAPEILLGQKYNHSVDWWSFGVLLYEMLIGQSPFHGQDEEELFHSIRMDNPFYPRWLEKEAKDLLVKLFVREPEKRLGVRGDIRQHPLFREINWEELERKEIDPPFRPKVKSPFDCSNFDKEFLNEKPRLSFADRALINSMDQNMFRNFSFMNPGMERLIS
Sequence of UniProt Q96PY6 (whole entry, looked up): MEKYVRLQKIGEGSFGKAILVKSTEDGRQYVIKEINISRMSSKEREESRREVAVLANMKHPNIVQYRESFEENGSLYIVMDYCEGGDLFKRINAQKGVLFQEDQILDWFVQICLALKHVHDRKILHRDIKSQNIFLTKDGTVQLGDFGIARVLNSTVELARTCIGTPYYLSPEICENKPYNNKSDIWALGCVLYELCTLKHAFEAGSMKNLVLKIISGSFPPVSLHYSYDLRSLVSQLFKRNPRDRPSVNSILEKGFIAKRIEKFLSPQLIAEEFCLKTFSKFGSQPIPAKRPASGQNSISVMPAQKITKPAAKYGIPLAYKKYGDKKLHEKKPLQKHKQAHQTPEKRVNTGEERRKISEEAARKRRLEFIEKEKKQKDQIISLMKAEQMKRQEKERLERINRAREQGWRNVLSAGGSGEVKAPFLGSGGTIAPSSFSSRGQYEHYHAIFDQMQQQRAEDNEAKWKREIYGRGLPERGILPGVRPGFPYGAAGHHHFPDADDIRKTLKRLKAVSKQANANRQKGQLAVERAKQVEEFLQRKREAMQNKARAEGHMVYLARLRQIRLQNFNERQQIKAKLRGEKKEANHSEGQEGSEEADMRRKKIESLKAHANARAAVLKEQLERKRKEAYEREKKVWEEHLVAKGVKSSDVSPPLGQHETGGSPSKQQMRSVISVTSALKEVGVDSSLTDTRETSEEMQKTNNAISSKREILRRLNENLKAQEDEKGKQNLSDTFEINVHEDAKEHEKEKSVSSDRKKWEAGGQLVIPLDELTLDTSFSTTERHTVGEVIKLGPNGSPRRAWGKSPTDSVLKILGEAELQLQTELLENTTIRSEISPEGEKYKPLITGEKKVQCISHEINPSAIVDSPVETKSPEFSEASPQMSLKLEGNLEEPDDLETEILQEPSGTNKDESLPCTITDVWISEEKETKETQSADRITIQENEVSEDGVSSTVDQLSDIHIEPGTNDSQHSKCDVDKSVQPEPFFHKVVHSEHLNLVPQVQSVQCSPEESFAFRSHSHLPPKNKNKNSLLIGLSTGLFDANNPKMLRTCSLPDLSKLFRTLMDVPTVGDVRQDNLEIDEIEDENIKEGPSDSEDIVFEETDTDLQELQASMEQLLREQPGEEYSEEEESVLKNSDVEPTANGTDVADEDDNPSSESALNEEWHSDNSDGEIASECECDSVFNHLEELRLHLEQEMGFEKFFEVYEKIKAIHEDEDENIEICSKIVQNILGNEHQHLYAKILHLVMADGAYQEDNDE
Sequence of UniProt P48730 (whole entry, looked up): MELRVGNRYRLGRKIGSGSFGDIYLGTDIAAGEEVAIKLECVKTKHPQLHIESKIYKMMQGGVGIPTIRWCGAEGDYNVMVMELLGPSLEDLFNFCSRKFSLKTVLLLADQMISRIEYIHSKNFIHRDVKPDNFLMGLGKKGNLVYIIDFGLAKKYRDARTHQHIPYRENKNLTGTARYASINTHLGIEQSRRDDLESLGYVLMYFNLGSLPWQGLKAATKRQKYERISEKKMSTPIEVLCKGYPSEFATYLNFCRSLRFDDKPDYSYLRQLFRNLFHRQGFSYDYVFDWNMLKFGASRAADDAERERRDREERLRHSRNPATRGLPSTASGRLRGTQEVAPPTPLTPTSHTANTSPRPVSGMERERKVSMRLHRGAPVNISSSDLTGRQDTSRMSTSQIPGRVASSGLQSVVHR

Block 1
SMILES: Cc1c(C(=O)O)cc(-c2ccc(C3CCNCC3)cc2)c2ccc(-c3ccc(C(F)(F)F)cc3)cc12
Method: competition with immobilised ligand
Concentration: 1 µM
INSRR (Homo sapiens, UniProt P14616); binding — remaining binding: 100%.
It gave 86% for remaining binding (LATS1 (Homo sapiens, UniProt O95835); binding).
SRPK1 (Homo sapiens, UniProt Q96SB4); binding — remaining binding: 100%.
For KIT (Homo sapiens, UniProt P10721, V559D/V654A); binding: remaining binding read 100%.
It gave 100% for remaining binding (ZAP70 (Homo sapiens, UniProt P43403); binding).
It gave 100% for remaining binding (ALK (Homo sapiens, UniProt Q9UM73); cell-free assay).
The remaining binding was 100% (SIK3 (Homo sapiens, UniProt Q9Y2K2); binding).
The remaining binding was 100% (EPHB6 (Homo sapiens, UniProt O15197); cell-free assay).
For PIK3CA (Homo sapiens, UniProt P42336, E545K); cell-free assay: remaining binding read 89%.
For IRAK4 (Homo sapiens, UniProt Q9NWZ3); binding: remaining binding read 100%.
For BRAF (Homo sapiens, UniProt P15056); cell-free assay: remaining binding read 100%.
The remaining binding was 100% (BMPR1A (Homo sapiens, UniProt P36894); binding).
It gave 100% for remaining binding (CDKL3 (Homo sapiens, UniProt Q8IVW4); binding).
NUAK2 (Homo sapiens, UniProt Q9H093); binding — remaining binding: 100%.
For PIK3CA (Homo sapiens, UniProt P42336, H1047L); cell-free assay: remaining binding read 100%.
The remaining binding was 100% (NEK1 (Homo sapiens, UniProt Q96PY6); binding).
The remaining binding was 100% (BRAF (Homo sapiens, UniProt P15056, V600E); cell-free assay).
The remaining binding was 100% (CSNK2A1 (Homo sapiens, UniProt P68400); cell-free assay).
It gave 87% for remaining binding (Tyrosine-protein kinase ABL1, phosphorylated (ABL1, Homo sapiens, UniProt P00519, Y253F); binding).

Block 2
Host: mouse
Medium: microsomes or S9
Concentration: 2 µM
Time: 0.5 h
`CCCNc1c(C(=O)OC)nc2ccc(Cl)cn12` gave a remaining compound of 0.856%.
`CCOc1cc(/C=N/n2cnnc2)cc(Cl)c1OCCOc1cc(C)ccc1C(C)C` has a remaining compound of 65.4%.
For `O=C(Nc1ccc(-c2nc3ccccc3[nH]2)cc1)c1ccnc(-n2cnnc2)c1`, the remaining compound was 99.1%.
With `CCCC(=O)Nc1nc2ncc(Br)nc2s1` the remaining compound was less than 1%.
With `CC1CCC(NS(=O)(=O)CC(=O)N2CCOCC2(C)C)CC1` (centres unmarked) the remaining compound was 1.34%.
With `Clc1cccc(C2CC(c3cccs3)Nc3ncnn32)c1Cl` (centres unmarked) the remaining compound was 2.35%.
`O=C(C1CC(=O)N(c2n[nH]c3cc(Br)ccc23)C1)N1CCCC1` (centres unmarked) gave a remaining compound of greater than 99%.
`CC(Oc1cc(-n2nc3c(c2Cl)CCCC3)c(F)cc1Cl)C(=O)NCCO` (centres unmarked) gave a remaining compound of 33.6%.
`CNS(=O)(=O)c1cn(CC(=O)NCc2ccccc2OC)cc1S(=O)(=O)NC` gave a remaining compound of 44.7%.
With `Cc1cc(C)cc(-n2ncc3c(=O)n(CC(=O)c4cc(C)[nH]c4C)cnc32)c1` the remaining compound was 98.2%.
`c1ccc2c(c1)CCN(c1nnc(-n3cccc3)s1)C2` has a remaining compound of 0.492%.

Block 3
Compound: Clc1ccc(Nc2nnc(Cc3ccncc3)c3ccccc23)cc1
Observed: enzyme activity
Action: inhibitor
Concentration: 0.5 µM
Baseline: control
The remaining activity was 116% (PAK1 (Homo sapiens, UniProt Q13153)).
The remaining activity was 107% (JAK1 (Homo sapiens, UniProt P23458)).
MUSK (Homo sapiens, UniProt O15146) — remaining activity: 105%.
The remaining activity was 98.5% (SRPK1 (Homo sapiens, UniProt Q96SB4)).
Cyclin-dependent kinase 2, with cyclin E (CDK2, Homo sapiens, UniProt P24941) — remaining activity: 94.5%.
For TYRO3 (Homo sapiens, UniProt Q06418): remaining activity read 98.2%.
It gave 101% for remaining activity (EPHA6 (Homo sapiens, UniProt Q9UF33)).
It gave 97.9% for remaining activity (SIK2 (Homo sapiens, UniProt Q9H0K1)).
CLK1 (Homo sapiens, UniProt P49759) — remaining activity: 110%.
MAP3K20 (Homo sapiens, UniProt Q9NYL2) — remaining activity: 90.3%.
It gave 137% for remaining activity (TEC (Homo sapiens, UniProt P42680)).
The remaining activity was 99.1% (CSNK1E (Homo sapiens, UniProt P49674)).
For FLT1 (Homo sapiens, UniProt P17948): remaining activity read 59.4%.
IGF1R (Homo sapiens, UniProt P08069) — remaining activity: 108%.
CSNK1D (Homo sapiens, UniProt P48730) — remaining activity: 92.2%.
EPHA2 (Homo sapiens, UniProt P29317) — remaining activity: 92.5%.
SGK2 (Homo sapiens, UniProt Q9HBY8) — remaining activity: 104%.
CAMK1 (Homo sapiens, UniProt Q14012) — remaining activity: 100%.
It gave 73.5% for remaining activity (PRKCQ (Homo sapiens, UniProt Q04759)).

Block 4
Organism: Sarcocystis neurona
Observed: parasite growth
Concentration: 10 µM
Time: 96 h
Notes: second screen
Baseline: untreated
For `C=CCc1ccc(O)c(-c2ccc(O)c(CC=C)c2)c1`, “log2 fold change” read 0.48.
For `O=C1Nc2ccc(Cl)cc2[C@@](C#CC2CC2)(C(F)(F)F)O1`, “log2 fold change” read -0.29.
Under “log2 fold change”, `N[C@@H](C(=O)N[C@@H]1C(=O)N2C(C(=O)O)=C(Cl)CS[C@H]12)c1ccccc1` is recorded as 0.53.
Under “log2 fold change”, `COC(=O)CCc1ccc(OCC(O)CNC(C)C)cc1` (centres unmarked) is recorded as 0.34.
`CN1CCN(C2=Nc3ccccc3Oc3ccc(Cl)cc32)CC1`: “log2 fold change” 0.5.
`CC(C)(C)NC(=O)[C@@H]1C[C@@H]2CCCC[C@@H]2CN1C[C@@H](O)[C@H](Cc1ccccc1)NC(=O)[C@H](CC(N)=O)NC(=O)c1ccc2ccccc2n1` — result for “log2 fold change”: -0.18.
Under “log2 fold change”, `CCN(CC)CCOc1ccc(C(=C(Cl)c2ccccc2)c2ccccc2)cc1` is recorded as 0.13.
`O=c1[nH]cnc2c1ncn2[C@H]1CC[C@@H](CO)O1`: “log2 fold change” 0.4.
`CC(=O)NCCCCCCNC(C)=O`: “log2 fold change” 0.25.
Under “log2 fold change”, `NC(=O)c1cnccn1` is recorded as 0.0534.
